# Results pooled from the literature.
# A part holds a random share of what one study measured. Substitutions count along the parent as printed.

# Block 1
# Target: CCNE2, cyclin fold, Cln2 fusion (human)
# Method: yeast growth competition, sequencing
# Sample: yeast
# Notes: weak parent motif
# Relative to: not given
# Reading: higher = stronger binding
# Starting sequence: RB1 docking peptide (human); PKPLKKLRFDIEG; partner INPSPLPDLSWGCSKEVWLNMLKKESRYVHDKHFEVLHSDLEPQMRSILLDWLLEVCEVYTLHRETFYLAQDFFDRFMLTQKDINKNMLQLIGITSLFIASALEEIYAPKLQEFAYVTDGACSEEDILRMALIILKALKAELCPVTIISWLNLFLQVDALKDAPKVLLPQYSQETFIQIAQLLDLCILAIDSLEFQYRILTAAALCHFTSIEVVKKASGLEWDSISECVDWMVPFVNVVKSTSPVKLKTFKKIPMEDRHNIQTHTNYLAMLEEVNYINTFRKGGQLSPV
Change,normalised enrichment score
PKPLKDLRFDIEG [K6D],0.135
PKPLKKLRFDIEH [G13H],0.404
PKPLMKLRFDIEG [K5M],-0.247
PKPLKKLSFDIEG [R8S],0.3
PKPLKKLRFDIEV [G13V],0.725
PKPLKKVRFDIEG [L7V],-0.184

# Block 2
# Target: ABI1, truncated, D143A, DHFR fusion (Arabidopsis thaliana)
# Method: DHFR PCA, deep sequencing
# Sample: yeast
# Notes: methotrexate growth selection, single substitutions
# With: (+)-ABA 17 µM
# Relative to: wild-type fitted maximum
# Reading: higher = stronger binding
# Starting sequence: PYL1, truncated, DHFR fusion (Arabidopsis thaliana); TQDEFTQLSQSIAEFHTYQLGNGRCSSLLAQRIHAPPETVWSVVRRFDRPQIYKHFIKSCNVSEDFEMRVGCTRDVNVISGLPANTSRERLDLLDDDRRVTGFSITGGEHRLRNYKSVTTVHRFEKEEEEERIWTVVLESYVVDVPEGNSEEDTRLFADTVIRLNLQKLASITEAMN
Change,relative binding score [%]
P50Y,-12.5
L20G,82.8
Y141I,-12.3
Q10N,80.9
V43R,5.49

# Block 3
# Target: Centromere-binding protein 1, full length, N-terminal tag (CBF1, Saccharomyces cerevisiae, UniProt P17106, residues 1-351)
# Chain of UniProt P17106 (whole entry, looked up): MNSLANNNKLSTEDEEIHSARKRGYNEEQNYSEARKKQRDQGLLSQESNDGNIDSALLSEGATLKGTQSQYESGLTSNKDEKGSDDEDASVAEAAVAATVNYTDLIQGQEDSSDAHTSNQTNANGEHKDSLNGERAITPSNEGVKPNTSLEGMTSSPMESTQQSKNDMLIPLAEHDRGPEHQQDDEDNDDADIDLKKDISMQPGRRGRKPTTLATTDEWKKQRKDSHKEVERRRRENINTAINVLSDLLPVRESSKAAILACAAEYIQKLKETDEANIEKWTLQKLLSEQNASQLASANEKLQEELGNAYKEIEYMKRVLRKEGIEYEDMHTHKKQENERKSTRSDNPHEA
# Method: protein-binding microarray
# Molecule type: double-stranded DNA, one strand shown
# Sample: in vitro
# Tested at: 0.8 µM
# Notes: whole 60-bp probe, no competitor
# Reading: higher = stronger binding
Strand,fluorescence intensity
CTATCACTATGCACTGATGACGTCACTGTCAATTTCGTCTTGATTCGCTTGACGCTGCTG,580 a.u.
CTATTTCGTGCAGCTTACATCAGCACAATCCATTTCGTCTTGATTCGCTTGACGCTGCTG,543 a.u.
CTAGCTATGGAAAGGCACGTAGTTCTACTTACTTTCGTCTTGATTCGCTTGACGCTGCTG,472 a.u.
CTAAAGATTCTTGTTCATGTGATACAGCTTTTCTTCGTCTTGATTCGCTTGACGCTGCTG,1950 a.u.
GAAAAAATAAGGCGTCAGGTGACCAGGCACCTCTAGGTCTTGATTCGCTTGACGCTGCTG,11800 a.u.
GAAACCTCAGCTCGTCACGTGACGGTCGATGAATAGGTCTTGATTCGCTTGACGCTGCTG,44800 a.u.
GAAACACACACTCTCAACGTGGTGCGTTTGTGGTAGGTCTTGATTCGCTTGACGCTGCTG,557 a.u.
GAACAAGAAAAGTTGAACGTGTCGTACGTATAATAGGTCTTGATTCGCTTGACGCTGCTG,556 a.u.

# Further values, each from its own experiment
Molecule,target,test,system,conditions,how to read,endpoint,result
"PhoQ, residues 284 288 289 292 302 303 GNNTDL","PhoP, residues 12 14 15 18 19 NHFRA (Escherichia coli, UniProt P23836)","Sort-seq, measured: YFP reporter",E. coli,"PhoQ-PhoP variant library, with: 10 µM Mg2+","relative to: high Mg2+ state, higher = stronger signaling",fold induction,1.63

# A few entries again (block 3):
Strand,fluorescence intensity
CTAAAGATTCTTGTTCATGTGATACAGCTTTTCTTCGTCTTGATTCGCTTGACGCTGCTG,1950 a.u.
CTATCACTATGCACTGATGACGTCACTGTCAATTTCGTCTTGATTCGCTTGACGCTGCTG,580 a.u.
